Experimental data from different studies.
Compare with care: the assays were run in different laboratories.

CC(C)(C)NC(=O)C1CCN(Cc2ccc(/N=N/c3ccccc3)cc2)CC1  absorption maximum, trans isomer (DMSO; 25 µM, 25 °C): 332 nm
OC[C@H]1O[C@@H](Oc2cc3c(O)cc(O)cc3[o+]c2-c2ccc(O)cc2)[C@H](O)[C@@H](O)[C@@H]1O  absorption maximum (buffer without protein; 50 µM, pH 7): 533 nm
CC(C)(C)NC(=O)C1CCN(Cc2cccc(/N=N/c3ccc(C(F)(F)F)cc3)c2)CC1  absorption maximum, trans isomer (DMSO; 25 µM, 25 °C): 326 nm
CNC(=O)c1c(C)oc2cc(Oc3ncnc4cc(OC)c(OC)cc34)ccc12  absorption rate constant ka (final population PK model; cancer patient weighing sample A kg; oral, no proton pump inhibitor): 2.52 h⁻¹
COC(=O)c1ccccc1-c1c2ccc(=N)cc-2oc2c1ccc1cccc(O)c12.Cl  absorption maximum (12.5 mM aqueous NaOH; pH 12.1, 10% DMSO): 621 nm
COc1ccc2c(c1)sc(-c1ccc(N(C)C)cc1)[n+]2C  absorption maximum wavelength (PBS; free dye): 414 nm
OC[C@H]1O[C@@H](Oc2cc3c(O)cc(O)cc3[o+]c2-c2cc(O)c(O)c(O)c2)[C@H](O)[C@@H](O)[C@@H]1O  absorption maximum (buffer without protein; 50 µM, pH 7): 568 nm
CC(C)(C)NC(=O)C1CCN(Cc2cccc(/N=N/c3cccc(F)c3)c2)CC1  absorption maximum, trans isomer (DMSO; 25 µM, 25 °C): 329 nm
CC1=NN(c2ccc(C)c(C)c2)C(=O)/C1=N\Nc1cccc(-c2cccc(C(=O)O)c2)c1O  absorption rate constant (Ka) (compartmental model; healthy subjects, plasma; oral, 75 mg): 1.02 h⁻¹
COc1ccc(/N=N/c2cccc(CN3CCC(C(=O)NC(C)(C)C)CC3)c2)cc1  absorption maximum, trans isomer (DMSO; 25 µM, 25 °C): 356 nm
OC[C@H]1O[C@@H](Oc2cc3c(O)cc(O)cc3[o+]c2-c2ccc(O)c(O)c2)[C@H](O)[C@@H](O)[C@@H]1O  absorption maximum (buffer without protein; 50 µM, pH 7): 550 nm
CC[C@@H]1CN(C(=O)NCC(F)(F)F)C[C@@H]1c1cnc2cnc3[nH]ccc3n12  absorption lag time (population PK model; healthy, RA and CD subjects, plasma; oral, immediate-release formulation): 0.469 h
Cn1cncc1-c1c(F)cncc1NC(=O)c1c(N)nn2cc(F)cnc12  absorption lag time (population PK model; patients with solid tumours, plasma; oral): 0.369 h

Repeated from above:
COC(=O)c1ccccc1-c1c2ccc(=N)cc-2oc2c1ccc1cccc(O)c12.Cl  absorption maximum (12.5 mM aqueous NaOH; pH 12.1, 10% DMSO): 621 nm
